# Assay results of several laboratories.
# Numbered parts are unrelated; each lists some results of a single study.

# Series 1
# Target: Cellular tumor antigen p53, full length (TP53, Homo sapiens, UniProt P04637, residues 1-393)
# Method: protein-binding microarray
# Molecule type: hairpin DNA
# Matrix: in vitro
# Concentration: not given
# Notes: whole hairpin DNA, median over replicate spots
# Relative to: not given
# Reading: higher = stronger binding
Oligonucleotide,median fluorescence [a.u.]
CGGACATGCCCGGGCCTGTCTCCTGACAGGCCCGGGCATGTCCGACACTC,12100
CCACCCGTGGTGGCATGCCTTCCTAGGCATGCCACCACGGGTGGACACTC,6480
CGGACATGCCCGGCGATGTCTCCTGACATCGCCGGGCATGTCCGACACTC,10100
CCACACGTGGTGGCATGCCTTCCTAGGCATGCCACCACGTGTGGACACTC (5mC at 36),7350
CGGACATGCCCGGCGATGTCTCCTGACATCGCCGGGCATGTCCGACACTC (5mC at 14),9920
CCACACGCGGTGGCATGCCTTCCTAGGCATGCCACCGCGTGTGGACACTC,6860
CCACACCTGGTGGCATGCCTTCCTAGGCATGCCACCAGGTGTGGACACTC,7400
CGGACATGCCCGGGCATGTCTCCTGACATGCCCGGGCATGTCCGACACTC (5mC at 32),19100
CGGACATGCCAGGGCATGTCTCCTGACATGCCCTGGCATGTCCGACACTC,15300
CCACACGTGGTGGCATGCCTTCCTAGGCATGCCACCACGTGTGGACACTC (5mC at 33),6620
CCACACGTGGTGGCATGCCTTCCTAGGCATGCCACCACGTGTGGACACTC (5mC at 4),7410
CGGACATGCCGGGGCATGTCTCCTGACATGCCCCGGCATGTCCGACACTC (5mC at 10 34),13500
CGGACATGCGCGGGCATGTCTCCTGACATGCCCGCGCATGTCCGACACTC (5mC at 35),15400

# Series 2
# Target: PABPC1L2, full length, GST fusion (mouse, UniProt A0ABA7IW68)
# Method: RNAcompete
# Molecule type: RNA
# Matrix: in vitro
# Concentration: 20 nM
# Notes: 7-mer, probes averaged, single round
# Relative to: mean of 7-mers
# Reading: higher = stronger binding
# Target sequence (chain): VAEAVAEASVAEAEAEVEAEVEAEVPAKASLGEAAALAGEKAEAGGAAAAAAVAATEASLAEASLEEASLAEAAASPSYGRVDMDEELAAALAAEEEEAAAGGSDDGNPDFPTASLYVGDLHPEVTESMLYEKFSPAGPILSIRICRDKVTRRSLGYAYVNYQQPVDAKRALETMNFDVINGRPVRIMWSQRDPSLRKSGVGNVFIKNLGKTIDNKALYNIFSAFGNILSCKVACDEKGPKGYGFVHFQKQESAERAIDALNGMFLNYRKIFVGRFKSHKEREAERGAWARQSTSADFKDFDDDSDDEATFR
Oligonucleotide,7-mer Z-score
UAUAACA,0.0406
CUAUUAC,-0.19
GUACCAG,-0.248
GGGUAUC,0.0207
CCGGGAU,-0.0808
UUAAUAG,-0.17
UCUAGCG,-0.255
CACUAUG,-0.13
CCGGACC,-0.313
AUUGGUG,-0.0989
CCUUGUC,-0.329
CCCUGCC,-0.503
CCUUAGC,-0.416
ACCGUCU,-0.237
UGAAGCG,-0.0373
CCGGGAG,-0.195
GUUGAUC,-0.211
AACAAGU,0.717
GCCACGU,-0.164
UAAGACG,0.0497
AUAAAGA,3.61
AGGGUCG,0.111

# Series 3
# Target: Fragile X messenger ribonucleoprotein 1, C-terminal low-complexity region (Fmr1, Mus musculus, UniProt P35922)
# Method: RNA Bind-n-Seq
# Molecule type: RNA
# Matrix: in vitro
# Concentration: 200 nM
# Notes: whole 134-nt RNA, ends assumed
# With: 150 mM KCl
# Relative to: input library
# Reading: higher = stronger binding
# Constant ends, left off below: GGGAGUUCUACAGUCCGACGAUC … UGGAAUUCUCGGGUGUCAAGG
Oligonucleotide,log2 enrichment
AGUCCUGUGCUACACAUCGUAUGUACCGAAUCGGUUUUUGGUUUUUGGGGUUUUUGGGAAAGUAUUAUGUUACGCCGUUCGGAUCUGCAC,-0.428
ACCAUGCAGGUGGGCAUCUUUGGGAAGUGGGGCAAGGGGGGGAUAGGGAGGGGGGUAACACUUUGCGAACAGGUGGUCCCAGGUCGUUUC,1.04
GCAGGAAGUAAAAACAAAUGGAAAUGCUUCGGAUAGUGACAGGGGUGGGGGUUGCUAAGGAAAGGGUGGGAUGGGAGUGGGUAAAGAGUU,0.253
CAAGUCCUGUGCUACACAUCGUAUGUACCGAAUCGGAAAAAAAGGAAAAAGGUGGAAAGUAUUAUGUUACGCCGUUCGGAUCUGCACUUC,-0.668
UGUGAGAUUAAACUUGCCCCCAAACGAUCUCGUUUGGAGACUAGAGCUGGAGAAGAAGAUGAAGGAGAAGAGGAUUCUGAUUCUGAUUAU,-0.828
UUUCCCCUGGAGGGCGCCUCCAUCCUUGGAGGCCUAGUGCCGUCGGAGAGAGAGCGGGAGCCGCGGACAGAGACGCGUGCGCAAUUCGGA,-1.21
CCUGUGCUACACAUCGUAUGUACCGAAUCGGGCCCCCCGGGGCCCCCCGGGGCCCCCCGGAAAGUAUUAUGUUACGCCGUUCGGAUCUGC,-0.842
UGGCCCUGGUGGCAUGCGGGGAGGAAGAGGUGGCCUCAUGGAUCGUGGUGGUCCCGGUGGAAUGUUCAGAGGUGGCCGUGGAGGAGACAG,-0.0381
AAGUCCUGUGCUACACAUCGUAUGUACCGAAUCGGAAAAAAAGGAAAAAGGUUUGGAAAGUAUUAUGUUACGCCGUUCGGAUCUGCACUU,-1.44
UGGCCCUGGUGGCAUGCGGGGAGGAAGAGGUGGCCUCAUGGAUCGUGGUGGUCCCGGUGGAAUGUUCAGAGGUUGCCGUGGUGGAGACAG,-0.275

# Series 4
# Target: RING finger protein unkempt homolog, zinc fingers 1-6, GST-SBP tag (UNK, Homo sapiens, UniProt Q9C0B0, residues 30-357)
# Sequence of UniProt Q9C0B0 (30-357, looked up): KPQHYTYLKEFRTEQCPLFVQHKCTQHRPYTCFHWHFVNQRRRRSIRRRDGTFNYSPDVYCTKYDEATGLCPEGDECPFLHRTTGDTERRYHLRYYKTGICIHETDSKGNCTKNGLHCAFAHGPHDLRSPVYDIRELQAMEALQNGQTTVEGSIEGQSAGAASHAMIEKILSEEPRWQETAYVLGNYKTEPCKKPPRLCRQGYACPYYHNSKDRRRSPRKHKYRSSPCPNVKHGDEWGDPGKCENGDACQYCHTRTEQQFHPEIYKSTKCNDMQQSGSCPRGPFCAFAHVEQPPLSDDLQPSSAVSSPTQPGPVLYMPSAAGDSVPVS
# Method: RNA Bind-n-Seq
# Molecule type: RNA
# Matrix: in vitro
# Concentration: not given
# Notes: RNA with constant flanks, human and mouse sites, ends assumed
# Relative to: input RNA pool
# Reading: higher = stronger binding
# Constant ends, left off below: GGGAGUUCUACAGUCCGACGAUC … CAACAGAGGAUUGAGCAUCA
Oligonucleotide,bound/input enrichment [ratio]
GACCAAGCUCUUGCUGACAUAAGAGAAAAUGAACAGAGCCUCCUGGAAUACCUAGAGAAACAGCGCAACAGAAUUGGCUGUAGGACCAUAGUCUAUUGGGGGAUUGGUAGGAACCGUUAC,0.667
UUCACUCCUUUUGGGUUUGUUGUUCUUCAAGGAAACAAGAGGGUCCACUUCAUUAAAUGGAAUGAGGUGACCAAGCUGAAAUUUGAAGGAAAGACUUUCUAUUUAUACGUAAGUCAGAAA,0.135
AUUCUGAAUAUAUUUUUUUCUGUAAUUUUAUCAUUACACGAUGUUUGCAAUACGUGCUUUGUUUUUUAAUUUGAAAGCAAACUUUUCUACUGUUGAAAGACAUUUUUUGACAACUUGACC,0.962
UUCCGGGGAGAAGCCUUUCCAGGACCCAUGUGUAGGCACAACUGUUUUCCCUGAUCAGGAUACUUGCGGCACUCAACAGAGGAAAGAAAUUCCUAAGGGAACACUGCUCAGAAAGUACUG,0.103
GCAACCCUGUCUGUAGGAGGAAAAACUGUAUCACGUUUUCGUAAAGCUACAUCCAUAUUGGAAUUUUACCGGGAACUUGGAUUGCCGCCGAAACAGACAGUUAAAAUCUUUAAUAUAACA,0.372
GCGGGCUGAGCUCAGGGCUUCCCCGGCCCGGACGCAAUCGCUCAAGUCGGGAGUCCUCCCCCAGGUCCCGGCGGAGACGCCAGCGCGAAAACGCGGACCCAAACCUCCGCGUAGCCCUGG,0.119
UCACUUUGUGAUUAUUUCACUUUAGAUGCUGAUGAUUUGUUUUUGUAUUUUUAAUGGGGGUAGCAGCUGGACUACCCACGUUCUCACACCCACCGUCCGCCCUGCUCCUCCCUGGCUGCC,0.511
CCAGAUGUCAAAUUAAACCUCGGUGUAAGCGGAGAUUUCAUCAAAGAAUCUACAGCUACUACAUUUCUGAGACAAAGAGGCUAUGGCUGGCUUUUGGAAGUUGAAGAUGAGGAUCCUGAA,0.136
UACUUUUAUUCCAAGGGGGAGCUCAGGAGAUGGCAUUCCCAGAAAGUAUUUUAGUACAUCAAGCGACCAGAGCCAAAGCCUUAAAUCCAACCCACACACAACUGAAGAUCGCCUCCUCCC,0.463
CCUACAAAUCUCCUUAAUUAUAACAUUCACAGCCACAGAACUAAUCAUAUUUUAUAUCUUCUUCGAAACCACACUUAUCCCCACCUUGGCUAUCAUCACCCGAUGAGGCAACCAGCCAGA,2.25
ACCCUCAUCAACAUCCCGUCAUUAAAUGACAGUGACUCAGAAAUAGAAGAUAUUUCAGAAAUAGAGUCAAACCGAUCAUUUUCUCCAGAGGAGAGACGUCAUCAGUAUUCUGAUUAUGAU,0.124

# Some of these lines once more (series 3):
Oligonucleotide,log2 enrichment
AGUCCUGUGCUACACAUCGUAUGUACCGAAUCGGUUUUUGGUUUUUGGGGUUUUUGGGAAAGUAUUAUGUUACGCCGUUCGGAUCUGCAC,-0.428
ACCAUGCAGGUGGGCAUCUUUGGGAAGUGGGGCAAGGGGGGGAUAGGGAGGGGGGUAACACUUUGCGAACAGGUGGUCCCAGGUCGUUUC,1.04
GCAGGAAGUAAAAACAAAUGGAAAUGCUUCGGAUAGUGACAGGGGUGGGGGUUGCUAAGGAAAGGGUGGGAUGGGAGUGGGUAAAGAGUU,0.253
CAAGUCCUGUGCUACACAUCGUAUGUACCGAAUCGGAAAAAAAGGAAAAAGGUGGAAAGUAUUAUGUUACGCCGUUCGGAUCUGCACUUC,-0.668
UGUGAGAUUAAACUUGCCCCCAAACGAUCUCGUUUGGAGACUAGAGCUGGAGAAGAAGAUGAAGGAGAAGAGGAUUCUGAUUCUGAUUAU,-0.828
UUUCCCCUGGAGGGCGCCUCCAUCCUUGGAGGCCUAGUGCCGUCGGAGAGAGAGCGGGAGCCGCGGACAGAGACGCGUGCGCAAUUCGGA,-1.21
CCUGUGCUACACAUCGUAUGUACCGAAUCGGGCCCCCCGGGGCCCCCCGGGGCCCCCCGGAAAGUAUUAUGUUACGCCGUUCGGAUCUGC,-0.842
UGGCCCUGGUGGCAUGCGGGGAGGAAGAGGUGGCCUCAUGGAUCGUGGUGGUCCCGGUGGAAUGUUCAGAGGUGGCCGUGGAGGAGACAG,-0.0381
AAGUCCUGUGCUACACAUCGUAUGUACCGAAUCGGAAAAAAAGGAAAAAGGUUUGGAAAGUAUUAUGUUACGCCGUUCGGAUCUGCACUU,-1.44
